Results of several laboratories.
Compare with care: the assays were run in different laboratories. Several values in a cell are separate wells, animals, samples, runs or records. ± marks the error that the study gave.

For C[C@]12CC[C@@H]3c4ccc(O)cc4CC[C@H]3[C@@H]1CC[C@@H]2OC(=O)CCC1CCCC1, the viability was 57.2% and 33.7% (MDA-MB-231 BAX/BAK siRNA knockdown; CellTiter-Glo; concentration not given; reference: normalised luminescence).
For O=P(O)(O)C(O)(Cn1ccnc1)P(=O)(O)O, the viability was 100 ± 1% (hFOB 1.19; AlamarBlue; 3.8 µM, 72 h; reference: control).
Cc1cccc(-c2[nH]c(CNc3ccccc3F)nc2-c2ccc3ncnn3c2)n1 gave a viability of 83% (bone marrow CD138+ myeloma cells; XTT; 0.6 µM, mean of three patients).
With CC1CC(OC(=O)C(O)c2ccccc2)CC(C)(C)C1 (stereo not drawn) the viability was 18.8% and 25.3% (MDA-MB-231 BAX/BAK siRNA knockdown; CellTiter-Glo; concentration not given; reference: normalised luminescence).
For Nc1ncnc2c1ncn2[C@@H]1O[C@H](CO)[C@@H](O)[C@H]1O, the viability was 84.2 a.u. and 87.9 a.u. and 83.5 a.u. (activated human T cells; 1 µM, 72 h; higher = more viable cells).
With Nc1cccc2c1CN(C1CCC(=O)NC1=O)C2=O (stereo not drawn) the viability was 98% (bone marrow CD138+ myeloma cells; XTT; 0.2 µM, mean of three patients).
CC(=O)c1nn(-c2ccc(Cl)cc2)/c(=N/N=C(\C)c2ccc(NC(=O)c3ccc(C)cc3)cc2)s1 has a viability of 2.54% (HepG2; 10 µM).
With Nc1cccc2c1C(=O)N(C1CCC(=O)NC1=O)C2=O (stereo not drawn) the viability was 69% (MM1.S; XTT; 0.2 µM; reference: untreated).
The viability of Nc1ncnc2[nH]cnc12 is reported as 52% and 56.8% (MDA-MB-231 BAX/BAK siRNA knockdown; CellTiter-Glo; concentration not given; reference: normalised luminescence).

For quick reference, copied from above:
With CC1CC(OC(=O)C(O)c2ccccc2)CC(C)(C)C1 (stereo not drawn) the viability was 18.8% and 25.3% (MDA-MB-231 BAX/BAK siRNA knockdown; CellTiter-Glo; concentration not given; reference: normalised luminescence).
